Experimental data gathered from unrelated publications.
A part holds a random share of what one study measured.

Block 1 — technique: RNA Bind-n-Seq; molecule type: RNA; matrix: in vitro; tested at: 365 nM; baseline: no-protein control; direction: higher = stronger binding
Target: RNA binding protein fox-1 homolog 2, RRM domain, GST-SBP tag (RBFOX2, Homo sapiens, UniProt O43251-10, residues 100-194)
Setting: natural RNA segment, single round, ends assumed
Construct (chain): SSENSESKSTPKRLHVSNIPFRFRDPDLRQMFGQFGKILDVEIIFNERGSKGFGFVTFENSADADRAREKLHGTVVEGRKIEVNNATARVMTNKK
Oligonucleotide | RBNS enrichment (R)
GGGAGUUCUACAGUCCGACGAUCCACACUUGAUGACAUUACAAAGCUAAACCAUGCCUCUUGGUAAAGCUGCUUGAUUACAAGUGCCAGGAAAACGACUGUUAUCCACUGCGUACUACAUGUUACAUGCUGCAUGGAAUUCUCGGGUGCCAA | 0.976
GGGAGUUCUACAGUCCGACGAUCUCUAUUGUGCUGUAAGUUGAUGUUUAAAAUUGAGAAAUACUUUUGUCAUAGGUAAUUUGGAACAUUUACAAGCCAUUUGUAAAAUUUUAAGAUAAUCUGUAACUAAUACAUGGAAUUCUCGGGUGCCAA | 0.654
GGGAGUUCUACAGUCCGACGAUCCUCAAAGGACCAAAUUUCUUUGGCCAAAGAAGUUGCUUCUAUGUUAGUCCCAUACCCUGAAGUAAUAUGUACCAUGGCUCCCACCUACCUGUUUAUGCUCUCCCUGCCCCUGGAAUUCUCGGGUGCCAA | 0.805
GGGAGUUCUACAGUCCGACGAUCUAAGCCAAGCCUGCCCAGCUAAUGAGCUGUUUGACGUUGAACUUGAAAGCUUUCCCCUCCCUCUAAGAUGAUGUAGGUACUUGAGGUUUGGGUUAAAGGGGCUGGGUGGGUGGAAUUCUCGGGUGCCAA | 0.57
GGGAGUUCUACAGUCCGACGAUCGCGCUACUUCUUAAGUACUUAAGUGACAUUUAGAUAAUUUAUAGUAAAACUGAAAUUAUUAUUAGCCAAUGCAUUGGUGCAUAGAAUUUACUAGGGCUACUUCUGGAAGCUGGAAUUCUCGGGUGCCAA | 0.325
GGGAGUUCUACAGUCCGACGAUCUUACUAACUUGGUGUCGCUACCCAGGACACAUUGUCUACAGUAAAUGGAAUGUGAGCCACAUCUGUACUCUAAACUUUCCUAAUAACUGUGUUAAACAAGAACAACAAAAUGGAAUUCUCGGGUGCCAA | 0.328
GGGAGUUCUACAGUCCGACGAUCUGGCCACCCCUCCCCAGUACAGGGGUGCUGCAGGUGGCAGAGUGAAUGUCCCCCAUCAUGUGGCCCAACUCUCCUGGCCUGGCCAUCUCCCUCCCCAGAAACAGUGUGCAUGGAAUUCUCGGGUGCCAA | 11.3
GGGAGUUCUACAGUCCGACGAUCAAAUCAUUGUGCUACUCUGUGGAUGAGGGUUCAUUCUUAUGUAUGUUCAGAUGUCAUGUGCUGUCUACAUCAUGAGCUUUGGCUUAGGAGAACCUACAAAGCUGGCAGAGUGGAAUUCUCGGGUGCCAA | 0.676
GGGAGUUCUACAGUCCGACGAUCAGGCCCAUGGCAUUGUGGUGACGGAUGUGGCCUUUCUACCUGAGAAGGGUCGUGGUCCAGAGCUCCUUGGGUCCCAUGAAACUGCCCUGUUCUCUGUGGCUGUGGACAGUUGGAAUUCUCGGGUGCCAA | 0.346
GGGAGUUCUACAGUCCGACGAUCGUAAGGCUCCUGUUGGCCAGUAGCUUGUGAUCUGGGACCUCUGGGGCCUCGUGUCUGCCUCACUCCCGGGCCCCAGUCCUGGGUGAAGUUGGCAAAGCACUGGGUAUCUUUGGAAUUCUCGGGUGCCAA | 0.805
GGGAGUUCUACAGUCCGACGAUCUCAGCUGGUGACACAGCUGCACUGGCAAGAAAAUGGACCCACCUUUUCCAGCACACCUUACCGCUACCAGGCCUGCAGGUUUGGGCAGGUUCCAGACCAGCCUGCUGGCCUGGAAUUCUCGGGUGCCAA | 0.396
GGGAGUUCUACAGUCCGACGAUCUAUGUCUGUGAUAAUUGCUUUGACUUUAUUAUCAUGUAUUAAACAGUAAUAACAAUGGGACUUAGAGGAGGUAAACAUAACUUAUGUGCCUCAAACCAGCUAGUCCUGGAUGGAAUUCUCGGGUGCCAA | 0.347

Block 2 — technique: protein-binding microarray; molecule type: double-stranded DNA, one strand shown; matrix: in vitro; tested at: 0.8 µM; setting: whole 60-bp probe, no competitor; direction: higher = stronger binding
Target: Centromere-binding protein 1, full length, N-terminal tag (CBF1, Saccharomyces cerevisiae, UniProt P17106, residues 1-351)
Chain of UniProt P17106 (whole entry, looked up): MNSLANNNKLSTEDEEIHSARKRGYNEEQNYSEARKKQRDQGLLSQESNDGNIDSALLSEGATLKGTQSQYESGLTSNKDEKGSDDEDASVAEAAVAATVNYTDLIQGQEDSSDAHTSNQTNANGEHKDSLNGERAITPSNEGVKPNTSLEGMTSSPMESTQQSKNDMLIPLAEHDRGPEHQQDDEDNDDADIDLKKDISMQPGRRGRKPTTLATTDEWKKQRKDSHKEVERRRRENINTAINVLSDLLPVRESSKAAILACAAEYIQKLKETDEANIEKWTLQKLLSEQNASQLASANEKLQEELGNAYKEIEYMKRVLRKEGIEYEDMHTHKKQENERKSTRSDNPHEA
Oligonucleotide | fluorescence intensity [a.u.]
GAAATAATAAATACAAACGTGGGAAGTCGGAGATAGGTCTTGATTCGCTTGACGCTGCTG | 630
GAATTTTTCCCACACGTGCTTATGGGCCGCATTTAGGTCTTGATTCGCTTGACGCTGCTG | 7730
GAATTTCTGTTCAACCACGCGATGAGTTTTTTTTAGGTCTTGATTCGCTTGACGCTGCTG | 630
CTATATATTGCACAGGTGATTTTGATGTAGAATTTCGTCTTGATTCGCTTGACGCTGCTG | 887
CCTAACTACTATAACGTGGCCGCATAGCTTCGTACAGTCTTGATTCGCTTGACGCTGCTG | 539
CTATCGTGGATTCATCATCAGAATACGCCTGGCTTCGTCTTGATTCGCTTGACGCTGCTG | 532
CTATTTCGTTCGTGCAGCGTGATTAACCGAGCCTTCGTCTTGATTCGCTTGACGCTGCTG | 842
GAAACTTATTGCCCGCACGAGAAAATCAGAGAATAGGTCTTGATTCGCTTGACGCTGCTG | 605
CTAGCTCAACTTCATCACGTCCTTGGTTTTTACTTCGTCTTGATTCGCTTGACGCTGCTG | 596
GAACACCACCACCACCACCACCGCCTGGATACGTAGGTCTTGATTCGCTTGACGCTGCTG | 519
GAAAATATTTAAGGTGTCACGGTGATTGCAAGATAGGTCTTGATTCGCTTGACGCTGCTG | 830
GAATCAAGTAGGTCCCTCGTGTCACATACGAGTTAGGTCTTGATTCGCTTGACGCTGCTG | 617
CTAGCTATCGGAGGTGGTCTGAGTTACTCGACATTCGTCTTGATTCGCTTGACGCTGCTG | 506
GAAAATAAAGAGAGTCACGGGGAATATCGGGAATAGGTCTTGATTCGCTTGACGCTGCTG | 1750
GAATGTATGGTGCGTCACCTTCTTTTTTTTAGTTAGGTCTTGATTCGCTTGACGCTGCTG | 510
GAAAGCAATACAGGTGGTGGTTCAAGCAAAACATAGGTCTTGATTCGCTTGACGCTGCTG | 568
GAATAACAAGAGGCGCACATGCCTTTTGACTCATAGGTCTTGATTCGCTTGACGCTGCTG | 559
CTATAAAAAATACATCAGATAGTGTTTCGATGTTTCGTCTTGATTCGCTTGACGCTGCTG | 506

Block 3 — technique: RNA Bind-n-Seq; molecule type: RNA; matrix: in vitro; tested at: not given; baseline: input RNA pool; direction: higher = stronger binding
Target: RING finger protein unkempt homolog, zinc fingers 1-6, GST-SBP tag (UNK, Homo sapiens, UniProt Q9C0B0, residues 30-357)
Chain of UniProt Q9C0B0 (30-357, looked up): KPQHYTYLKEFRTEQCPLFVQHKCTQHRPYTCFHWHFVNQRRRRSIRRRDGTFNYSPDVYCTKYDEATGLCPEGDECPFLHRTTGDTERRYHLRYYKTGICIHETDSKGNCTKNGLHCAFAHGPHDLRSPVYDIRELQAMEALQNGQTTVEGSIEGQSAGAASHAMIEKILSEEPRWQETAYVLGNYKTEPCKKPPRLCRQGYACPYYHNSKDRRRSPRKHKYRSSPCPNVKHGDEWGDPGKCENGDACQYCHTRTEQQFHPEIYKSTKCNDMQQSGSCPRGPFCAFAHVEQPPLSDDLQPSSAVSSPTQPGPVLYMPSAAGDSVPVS
Setting: RNA with constant flanks, human-mouse chimeric sites, ends assumed
Oligonucleotide | bound/input enrichment
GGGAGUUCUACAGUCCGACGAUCAUAAAAGCCAUGUUGAGUGGUCCAGGUCAGUUUGCUGAGAAUGAAACCAACGAGGUCAAUUUUAGAGAGAUCCCCUCACAUGUGCUAUCAAAAGUGUGCAUGUAUUUUACCUACAAGGUCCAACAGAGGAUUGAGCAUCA | 0.199 ratio
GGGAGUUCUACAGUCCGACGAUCUAAAUUAGGGCUGCCGUUUUCUGUUUCGCCCUGAGCUGCAGACAGCUAGAAGAUUUUAUCUAGCUUAUACAAGGCUGCUGGUGUUCCCUCUUUUUUUCCACGAGGGUGUUUUUGGCUGCACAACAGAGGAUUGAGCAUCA | 0.52 ratio
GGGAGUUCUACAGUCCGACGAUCAGAAUCUGUGACUGGCUUUACUUAAUUGGUCAUUGAUAGCUUAACAAGCAUGGAGAUAAGAUUAGAAAUCUUGACAUCAACAGGUAUUAAGCAGAAAAAACCAUGGCCACGUGUCUCCUGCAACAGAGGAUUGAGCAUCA | 0.129 ratio
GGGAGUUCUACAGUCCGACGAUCAAAGAUCUACUGAGGCAAGGCAGCAAAUUUAGGAGAGACAUUUCAACAAUAUUGAUAGAGUUAGGAUUCCAAAUUAAAAAAAAAACUAAGACAUUAUACAUCAACAAAGCCAAUGUGUGGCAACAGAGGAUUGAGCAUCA | 7.1 ratio
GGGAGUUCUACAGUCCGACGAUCCAGUCCCCGUGUCCCAGUGCAGGACGAUGUGAACAAAUCGAAGACAUGGCCCUUUCUUUGUAGUUCUUGAUUCUCGAAAUGUGCUAUUAUUGUUUGUCUUUUUUUUUUUUUUUUUAAAGACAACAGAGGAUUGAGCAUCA | 1.18 ratio
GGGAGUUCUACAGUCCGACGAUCCUCAGAGAUGUGGCAUAUCAGUAUGUGAAAAAGGGGGCUCGAAUUUAUGUGGAAGGGAAAGUGGACUAUGGCGAGUACAUGGAUAAAAACAAUGUGAGGCGGCAAGCAACAACAAUCAUACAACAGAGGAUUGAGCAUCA | 0.353 ratio
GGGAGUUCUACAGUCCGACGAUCCCAAGUGAUUCAUCCCAAGGACAGGCCACCCCAUUUGAUGCCUGGACUGACGACAGUAUGGAAGGGCCUAGUCAAAAUGUUGAAGCUGAGUCAAUUCAGGAUGCCAUGAGUAUGGAAGAGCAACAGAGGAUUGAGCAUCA | 0.211 ratio
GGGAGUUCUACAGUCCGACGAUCCUGUGCGGGUGACUGUCCUGGAGUGGCUGGAGUUCCCGCCGGAGCGCGCGCAGGUUAAUUUUAGAAAAUGCCAAGUAGGAAGUUUGUUGAGGGUGAAGUGGUCAGAGGCCGAUGGCCUGGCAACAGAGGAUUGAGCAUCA | 3.38 ratio
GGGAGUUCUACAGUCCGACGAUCUCUUUAAAAAAAAAAUUACCUUUUCUGACAGUGCUUUCCCUCCCAUAGGUCCAGGUUCAAGCUCAAAGAGCAAAGGCUUUGCACGGAUCUGAUGAUGCUGAUGAAGAAAGAUUUCUGAGACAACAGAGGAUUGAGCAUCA | 0.506 ratio
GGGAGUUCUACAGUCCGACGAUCGGACAUCUGUCAAAUUGUUAUGUUCCUGUGAAACAAGUGAACACUCUGAUACACUUCAUCUGCUUGUACAUUUAACUUUGUAUAAUAUGUAAAUAUGUUAAUCCAAGCAAUGUGUCACUUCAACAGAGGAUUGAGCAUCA | 0.15 ratio
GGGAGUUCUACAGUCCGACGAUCGCAGGAUCUUCUAAGUACCAGUGGGACAUUAUGAAAUCCCUUGGGCUCUCUGAUGACGAGAUAGUAAAGUUUUCUGAAGCAGAGCACUGGCUUGAUUAUUUCCCACCACUGGCCGUUCAGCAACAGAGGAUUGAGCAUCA | 0.196 ratio

Block 4 — technique: protein binding microarray; molecule type: double-stranded DNA, one strand shown; matrix: in vitro; tested at: not given; baseline: not given; direction: higher = stronger binding
Target: Histone acetyltransferase KAT6A, winged helix 1, GST fusion (KAT6A, Homo sapiens, UniProt Q92794, residues 1-85)
Setting: 8-mer, flanks averaged, mean of 2 arrays, mostly near background
Construct (chain): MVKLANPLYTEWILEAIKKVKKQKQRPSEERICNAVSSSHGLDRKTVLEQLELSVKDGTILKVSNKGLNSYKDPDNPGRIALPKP
Oligonucleotide | E-score
ACCAGTCA | -0.0575
AGTCACAA | -0.239
AGACTTAA | -0.144
CGACGTAG | 0.112
GCTCTACC | 0.00349
CTGTAGGA | -0.0158
GGTAATAA | -0.0015
CGTGCACC | -0.11
CTTGAGAC | -0.0556
CATCAAGC | -0.102
TCTCCGAA | 0.0271
CCATCCTC | -0.0444
CACTTCAA | -0.184
GGCCCATA | -0.0339
CGTAGGTC | 0.0273
AAGTCGGA | -0.0305
AGCGCGAC | 0.286
GAAGATGA | -0.122
AATTGCAT | -0.152
CTTGTTGA | -0.152

Block 5 — technique: protein-binding microarray; molecule type: double-stranded DNA, one strand shown; matrix: in vitro; tested at: not given; direction: higher = stronger binding
Target: Transcription factor Sp1 (SP1, Homo sapiens, UniProt P08047, residues 1-785, full length assumed)
Chain of UniProt P08047 (whole entry, looked up): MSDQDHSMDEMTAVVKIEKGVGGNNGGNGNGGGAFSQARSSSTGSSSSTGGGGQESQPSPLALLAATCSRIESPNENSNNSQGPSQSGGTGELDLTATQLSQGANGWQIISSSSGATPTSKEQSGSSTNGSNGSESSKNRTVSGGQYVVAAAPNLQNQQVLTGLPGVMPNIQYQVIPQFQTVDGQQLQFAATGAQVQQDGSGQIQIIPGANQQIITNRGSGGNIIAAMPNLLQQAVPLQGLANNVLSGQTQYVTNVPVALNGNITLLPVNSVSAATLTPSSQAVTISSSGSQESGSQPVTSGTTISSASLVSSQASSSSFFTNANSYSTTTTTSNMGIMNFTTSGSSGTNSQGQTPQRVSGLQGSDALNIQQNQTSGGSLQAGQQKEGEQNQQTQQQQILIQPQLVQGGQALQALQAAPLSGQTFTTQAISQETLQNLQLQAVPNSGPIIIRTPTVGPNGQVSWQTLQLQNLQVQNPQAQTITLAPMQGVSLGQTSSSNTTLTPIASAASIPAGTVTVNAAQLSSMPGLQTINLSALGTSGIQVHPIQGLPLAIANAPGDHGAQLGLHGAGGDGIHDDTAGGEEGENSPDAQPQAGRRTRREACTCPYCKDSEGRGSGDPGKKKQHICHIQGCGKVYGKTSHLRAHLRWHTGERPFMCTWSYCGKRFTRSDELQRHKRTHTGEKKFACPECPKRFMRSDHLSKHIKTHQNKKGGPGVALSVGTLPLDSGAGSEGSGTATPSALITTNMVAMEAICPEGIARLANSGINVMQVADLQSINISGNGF
Setting: k-mer, scored over probes, only values ≥0.25
Oligonucleotide | E-score
ACGCCCTC | 0.263
CCCTCCTC | 0.298
ATCACCCC | 0.314
GAAGGGGC | 0.358
ATTGGTGG | 0.256
ACCACGCC | 0.257
ACCACCCC | 0.412
CATAACAA | 0.316
ATATTATG | 0.26
CCCACTCC | 0.28
GAGGGGAC | 0.325
CATCCCCA | 0.279
CCCCTCCC | 0.489
CCCTCCGC | 0.283
GGAGGGTA | 0.332
ACCCACCC | 0.47

For quick reference, copied from above (block 5):
Oligonucleotide | E-score
ACCACCCC | 0.412
GAGGGGAC | 0.325
CCCACTCC | 0.28
ACGCCCTC | 0.263
ATTGGTGG | 0.256
GGAGGGTA | 0.332
CATCCCCA | 0.279
CCCTCCTC | 0.298
CATAACAA | 0.316
